Experimental data from different studies.
pIC50: −log10 of the molar value.
Cell line: K562

SMILES | test | conditions | scale | measurement | value
CC12CCC3(CCC(=O)NCCCNc4ccnc5cc(Cl)ccc45)C(C)(OOC3(C)O1)O2 | cell growth or viability, resazurin | 10 µM, 48 h | – | inhibition | 22.3%
C[C@H]1[C@H](OC(=O)CCC(=O)Oc2ccc(-c3cc(=S)ss3)cc2)O[C@@H]2O[C@@]3(C)CC[C@H]4[C@H](C)CC[C@@H]1[C@@]24OO3 | cell growth or viability, CCK-8 | 72 h | – | pIC50 | 5.53
OC[C@H]1[C@@H](O)[C@@H](O)CN1Cc1ccc(I)cc1 | cell growth or viability, MTS | 72 h | – | pIC50 | 3.81
CC1CCC2C(C)C(OC(=O)CCC(=O)N(CCCc3cn(-c4ccc([N+](=O)[O-])cc4)nn3)CCNc3ccnc4cc(Cl)ccc34)OC3OC4(C)CCC1C32OO4 (stereo not drawn) | cell growth or viability, resazurin | 10 µM, 48 h | – | inhibition | 81.2%
CCCCCCCCCCCCCC(=O)NCC(=O)N[C@@H](CCCNC(=N)N)C(=O)N[C@@H](Cc1c[nH]c2ccccc12)C(=O)N[C@@H](CCCCN)C(=O)N[C@H](C(=O)N[C@@H](Cc1ccccc1)C(=O)N[C@@H](CCCCN)C(=O)N[C@@H](CCCCN)C(=O)N[C@H](C(=O)N[C@@H](CCC(=O)O)C(=O)N[C@@H](CCCCN)C(=O)N[C@H](C(=O)NCC(=O)N[C@@H](CCC(N)=O)C(=O)N[C@@H](CC(N)=O)C(=O)N[C@H](C(=O)N[C@@H](CCCNC(=N)N)C(=O)N[C@@H](CC(=O)O)C(=O)NCC(=O)N[C@H](C(=O)N[C@H](C(=O)N[C@@H](CCCCN)C(=O)N[C@@H](C)C(=O)NCC(=O)N1CCC[C@H]1C(=O)N[C@@H](C)C(=O)N[C@H](C(=O)N[C@@H](C)C(=O)N[C@H](C(=O)N[C@H](C(=O)NCC(=O)N[C@@H](CCC(N)=O)C(=O)N[C@@H](C)C(=O)N[C@@H](C)C(=O)N[C@H](C(=O)N[C@H](C(N)=O)[C@@H](C)CC)[C@@H](C)O)C(C)C)C(C)C)C(C)C)C(C)C)[C@@H](C)CC)[C@@H](C)CC)C(C)C)[C@@H](C)CC)[C@@H](C)CC | MTT | concentration not given, 24 h | relative to: K562/MDR | cytotoxicity | no effect
CC(C)C[C@H](NC(=O)[C@H](CO)NC(=O)[C@H](Cc1c[nH]c2ccccc12)NC(=O)[C@H](Cc1ccccc1)NC(=O)[C@H](Cc1ccccc1)NC(=O)[C@H](CCC(N)=O)NC(=O)[C@@H]1CCCN1C(=O)[C@H](CCCNC(=N)N)NC(=O)[C@H](CCCNC(=N)N)NC(=O)[C@H](CCCNC(=N)N)NC(=O)[C@H](CCC(N)=O)NC(=O)[C@H](CCCNC(=N)N)NC(=O)[C@H](CCCNC(=N)N)NC(=O)[C@H](CCCCN)NC(=O)[C@H](CCCCN)NC(=O)[C@H](CCCNC(=N)N)NC(=O)CNC(=O)[C@@H](N)Cc1ccc(O)cc1)C(=O)N[C@@H](CS)C(=O)N[C@H](C(=O)N[C@@H](C)C(=O)O)[C@@H](C)O | – | 20 µM, 15 min | – | trypan blue-negative cells | 22.4%
C#CCSc1nc(Sc2nnnn2C)c2nnn(Cc3ccccc3)c2n1 | cell growth or viability, MTS | 6 days | – | pIC50 | 5.15
CC/C=C\C/C=C\C/C=C\C/C=C\C/C=C\C/C=C\CCC(=O)Nc1ccn(C2OC(CO)C(O)C2(F)F)c(=O)n1 (stereo not drawn) | NCI60 screen | – | – | CC50 | > 100 µM
CC1CCC2C(C)C(OC(=O)CCC(=O)N(CCCc3cn(-c4ccc(C#N)cc4)nn3)CCNc3ccnc4cc(Cl)ccc34)OC3OC4(C)CCC1C32OO4 (stereo not drawn) | cell growth or viability, resazurin | 10 µM, 48 h | – | inhibition | 82.8%
CC1=CCC23OC2(C)CCC2C(C[N+](C)(C)C)C(=O)OC2C13.[I-] (stereo not drawn) | cell growth or viability, SRB | 8.3 µM | – | inhibition | 68.2%
OC[C@H]1[C@@H](O)[C@@H](O)CN1Cc1ccccc1 | cell growth or viability, MTS | 72 h | – | pIC50 | 3.71
C[C@H]1[C@H](OC(=O)CCC(=O)O[C@H]2CO[C@H]3[C@@H]2OC[C@H]3O[N+](=O)[O-])O[C@@H]2O[C@@]3(C)CC[C@H]4[C@H](C)CC[C@@H]1[C@@]24OO3 | cell growth or viability, CCK-8 | 72 h | – | pIC50 | 6.50

Repeated from above:
SMILES | test | conditions | scale | measurement | value
CC/C=C\C/C=C\C/C=C\C/C=C\C/C=C\C/C=C\CCC(=O)Nc1ccn(C2OC(CO)C(O)C2(F)F)c(=O)n1 (stereo not drawn) | NCI60 screen | – | – | CC50 | > 100 µM
